Measurements pooled from the literature.
Each line is one published result; not all experiments were run side by side.

SMILES | test system | conditions | AUC
CC#CC(=O)N1CCC[C@H]1c1nc(-c2ccc(C(=O)Nc3ccccn3)cc2)c2c(N)nccn12 | human, plasma | oral, dose not given, 50 mg twice daily dosing, with: itraconazole 200 mg | 1240 ng·h/mL
COc1cc2nccc(Oc3ccc(NC(=O)C4(C(=O)Nc5ccc(F)cc5)CC4)cc3)c2cc1OC | human metastatic RCC, SD/PR, plasma | oral, dose not given, median | 24600 ng·h/mL
N[C@@H](CC(=O)N1CCn2c(nnc2C(F)(F)F)C1)Cc1cc(F)c(F)cc1F | human | dose not given, alone | 3210 ng·h/mL
Cc1cc(-c2nccc3c2ccn3CC(=O)Nc2ccc(-c3cnccn3)cn2)ccn1 | human, plasma | oral, 40 mg single dose, geometric mean | 3.12 µM·h
N#Cc1cc(NC(=O)[C@H]2c3ccccc3C(=O)N(CC(F)(F)F)[C@@H]2c2cccnc2)ccc1F | human, plasma | oral, 600 mg, fed, median, interim | 23500 ng·h/mL
COC(=O)N[C@H](C(=O)N1CCC[C@H]1c1ncc(-c2cc(F)c3c(c2)O[C@@H](c2cnc(C4CC4)s2)n2c-3cc3cc(-c4cnc([C@@H]5CCCN5C(=O)[C@@H](NC(=O)OC)C(C)C)[nH]4)ccc32)[nH]1)C(C)C | healthy adult humans, plasma | oral, 180 mg once daily, day 6, fasted, steady state, alone | 3300 ng·h/mL
C/C(=C\c1csc(C)n1)[C@@H]1C[C@@H]2O[C@]2(C)CCC[C@H](C)[C@H](O)[C@@H](C)C(=O)C(C)(C)[C@@H](O)CC(=O)N1 | human patients, plasma | intravenous, 20 mg/m2, cycle 1 day 1, A | 973 ng·h/mL
CNC(=O)n1ccc2cc(Oc3ccnc(NC(=O)c4ccc(C5CCN(CCO)CC5)cc4)c3)c(OCCOC)cc21 | healthy human, plasma | oral, 35 mg, geometric mean, 0-72 h, with: rabeprazole 20 mg | 109 ng·h/mL
CCN(CC)CCNC(=O)c1c(C)[nH]c(/C=C2\C(=O)Nc3ccc(F)cc32)c1C | human patients, plasma | oral, dose not given, cycle 1 day 15 | 2140 ng·h/mL
COc1ccnc(C[S+]([O-])c2nc3ccc(OC(F)F)cc3[nH]2)c1OC (stereo not shown) | human, plasma | oral, dose not given, median | 5700 ng·h/mL
C[C@@H](c1ccc2nccn2c1)n1nnc2ncc(-c3cnn(C)c3)nc21 | human, plasma | oral, dose not given, cycle 1 day 1, single dose, all | 17300 ng·h/mL
C=CC(=O)N(C)CCOc1c(N)ncnc1-c1cc(F)cc(NC(=O)c2ccc(C3CC3)cc2F)c1C | human, plasma | oral, 1.5 mg single dose | 0.315 ng·h/mL
Cc1ccc(C(=O)NC2CC2)cc1-n1ncc(C(=O)c2cccc(C#N)c2)c1N | healthy human | oral, 50 mg single, mean | 24900 ng·h/mL
COc1ccc2[nH]c([S@+]([O-])Cc3ncc(C)c(OC)c3C)nc2c1 | human, dried blood spots | oral, 10 mg omeprazole, control arm | 167 ng·h/mL
O=C(COc1ccc(Cl)cc1)NC12CC(c3nnc([C@H]4C[C@@H](OC(F)(F)F)C4)o3)(C1)C2 | healthy human volunteers fasted, plasma | oral, 15 mg single dose, geometric mean | 14.2 µM·h
Cn1cnc2c(F)c(Nc3ccc(Br)cc3Cl)c(C(=O)NOCCO)cc21 | human ESRD on haemodialysis | oral, 50 mg, before dialysis | 1560 ng·h/mL
